Measurements gathered from unrelated publications.
A part holds a random share of what one study measured. Values joined by “and” are separate records of one study, mostly repeats; a detail may differ.
Chain of UniProt Q8N4C8 (whole entry, looked up): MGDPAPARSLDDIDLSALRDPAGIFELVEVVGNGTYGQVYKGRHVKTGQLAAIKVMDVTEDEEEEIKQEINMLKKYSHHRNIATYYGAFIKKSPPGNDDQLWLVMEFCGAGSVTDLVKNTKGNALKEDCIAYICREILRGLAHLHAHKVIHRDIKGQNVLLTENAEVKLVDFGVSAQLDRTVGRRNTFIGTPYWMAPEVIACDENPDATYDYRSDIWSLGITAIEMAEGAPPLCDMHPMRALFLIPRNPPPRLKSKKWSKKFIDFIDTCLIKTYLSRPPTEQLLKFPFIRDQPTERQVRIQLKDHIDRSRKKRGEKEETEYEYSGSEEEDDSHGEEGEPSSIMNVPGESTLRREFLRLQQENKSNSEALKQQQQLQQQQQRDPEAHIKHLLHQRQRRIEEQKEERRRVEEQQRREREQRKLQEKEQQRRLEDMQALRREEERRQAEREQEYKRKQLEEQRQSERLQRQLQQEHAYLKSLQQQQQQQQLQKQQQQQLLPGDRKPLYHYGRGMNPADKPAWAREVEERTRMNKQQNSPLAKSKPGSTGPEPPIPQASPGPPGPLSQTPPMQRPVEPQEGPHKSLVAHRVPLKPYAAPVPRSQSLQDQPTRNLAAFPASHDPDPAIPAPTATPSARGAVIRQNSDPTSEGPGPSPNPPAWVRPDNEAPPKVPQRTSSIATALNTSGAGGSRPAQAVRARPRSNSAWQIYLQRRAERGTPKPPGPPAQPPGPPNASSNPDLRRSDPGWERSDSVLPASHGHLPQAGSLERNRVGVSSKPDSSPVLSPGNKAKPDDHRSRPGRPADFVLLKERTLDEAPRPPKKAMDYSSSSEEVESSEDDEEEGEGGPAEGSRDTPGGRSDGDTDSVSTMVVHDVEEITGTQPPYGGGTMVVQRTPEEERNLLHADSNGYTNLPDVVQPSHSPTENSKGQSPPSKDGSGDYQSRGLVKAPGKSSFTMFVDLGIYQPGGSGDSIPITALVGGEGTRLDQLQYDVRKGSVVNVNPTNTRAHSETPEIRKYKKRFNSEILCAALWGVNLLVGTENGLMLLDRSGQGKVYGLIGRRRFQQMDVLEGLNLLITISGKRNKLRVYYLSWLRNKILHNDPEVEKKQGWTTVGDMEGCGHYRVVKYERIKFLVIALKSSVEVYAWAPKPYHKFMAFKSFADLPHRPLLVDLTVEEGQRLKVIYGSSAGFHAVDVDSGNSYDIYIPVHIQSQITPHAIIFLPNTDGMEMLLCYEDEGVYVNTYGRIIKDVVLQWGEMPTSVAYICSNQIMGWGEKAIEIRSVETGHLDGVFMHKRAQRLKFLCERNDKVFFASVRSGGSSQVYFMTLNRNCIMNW
Chain of UniProt P36896 (whole entry, looked up): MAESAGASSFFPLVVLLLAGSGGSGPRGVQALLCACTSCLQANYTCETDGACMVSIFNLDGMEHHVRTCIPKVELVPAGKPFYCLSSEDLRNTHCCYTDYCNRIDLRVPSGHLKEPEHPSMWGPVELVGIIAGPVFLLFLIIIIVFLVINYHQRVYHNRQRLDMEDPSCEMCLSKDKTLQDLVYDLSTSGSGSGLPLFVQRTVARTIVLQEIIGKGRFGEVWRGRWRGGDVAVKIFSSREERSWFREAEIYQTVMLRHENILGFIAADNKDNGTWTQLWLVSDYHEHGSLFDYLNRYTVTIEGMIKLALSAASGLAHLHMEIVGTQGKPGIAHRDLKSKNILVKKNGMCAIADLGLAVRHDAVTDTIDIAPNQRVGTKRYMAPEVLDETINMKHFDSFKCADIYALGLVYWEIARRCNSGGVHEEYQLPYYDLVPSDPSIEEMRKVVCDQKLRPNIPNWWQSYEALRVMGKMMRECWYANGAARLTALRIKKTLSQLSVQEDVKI
Chain of UniProt P42685 (whole entry, looked up): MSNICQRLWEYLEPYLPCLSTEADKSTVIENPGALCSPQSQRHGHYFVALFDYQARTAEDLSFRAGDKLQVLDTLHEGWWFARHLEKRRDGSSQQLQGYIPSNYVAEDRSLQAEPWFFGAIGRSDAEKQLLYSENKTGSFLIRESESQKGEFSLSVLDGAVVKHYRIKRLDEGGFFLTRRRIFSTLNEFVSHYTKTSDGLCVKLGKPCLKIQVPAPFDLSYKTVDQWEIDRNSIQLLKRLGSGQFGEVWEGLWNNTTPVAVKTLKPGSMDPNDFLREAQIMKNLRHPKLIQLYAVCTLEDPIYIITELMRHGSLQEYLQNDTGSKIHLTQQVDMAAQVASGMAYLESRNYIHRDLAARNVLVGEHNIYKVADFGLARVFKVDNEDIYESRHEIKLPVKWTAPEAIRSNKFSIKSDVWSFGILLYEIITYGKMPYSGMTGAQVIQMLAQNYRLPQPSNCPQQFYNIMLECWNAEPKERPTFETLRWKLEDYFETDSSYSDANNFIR
Chain of UniProt P49137 (whole entry, looked up): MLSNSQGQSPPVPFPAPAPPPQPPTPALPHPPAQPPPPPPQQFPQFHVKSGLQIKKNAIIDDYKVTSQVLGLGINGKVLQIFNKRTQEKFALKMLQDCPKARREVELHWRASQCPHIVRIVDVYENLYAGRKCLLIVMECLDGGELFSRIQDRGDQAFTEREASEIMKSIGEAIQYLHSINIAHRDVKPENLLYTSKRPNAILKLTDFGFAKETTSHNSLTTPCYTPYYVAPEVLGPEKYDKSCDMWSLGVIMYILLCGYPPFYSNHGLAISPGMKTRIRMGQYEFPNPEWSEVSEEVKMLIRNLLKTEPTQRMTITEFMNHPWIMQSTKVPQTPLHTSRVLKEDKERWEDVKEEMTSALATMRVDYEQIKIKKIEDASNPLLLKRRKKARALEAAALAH
Chain of UniProt P57058 (whole entry, looked up): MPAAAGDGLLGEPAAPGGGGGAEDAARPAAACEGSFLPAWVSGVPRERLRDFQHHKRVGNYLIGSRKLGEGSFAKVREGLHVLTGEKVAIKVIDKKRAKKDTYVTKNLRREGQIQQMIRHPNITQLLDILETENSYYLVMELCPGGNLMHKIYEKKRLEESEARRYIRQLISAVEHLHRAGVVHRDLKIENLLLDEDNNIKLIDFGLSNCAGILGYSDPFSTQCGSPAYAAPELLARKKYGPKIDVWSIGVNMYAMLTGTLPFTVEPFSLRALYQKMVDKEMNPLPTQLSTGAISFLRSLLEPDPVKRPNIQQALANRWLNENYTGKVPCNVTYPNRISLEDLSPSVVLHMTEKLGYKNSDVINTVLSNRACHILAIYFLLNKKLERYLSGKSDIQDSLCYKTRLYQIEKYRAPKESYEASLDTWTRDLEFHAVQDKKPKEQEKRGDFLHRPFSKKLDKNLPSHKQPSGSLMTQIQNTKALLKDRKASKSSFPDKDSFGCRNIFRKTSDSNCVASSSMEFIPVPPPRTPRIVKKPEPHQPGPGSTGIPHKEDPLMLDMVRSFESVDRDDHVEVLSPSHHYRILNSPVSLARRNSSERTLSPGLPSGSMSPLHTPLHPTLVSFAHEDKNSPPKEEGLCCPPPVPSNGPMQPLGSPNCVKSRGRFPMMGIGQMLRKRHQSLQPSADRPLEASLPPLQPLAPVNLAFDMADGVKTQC
Chain of UniProt Q99558 (whole entry, looked up): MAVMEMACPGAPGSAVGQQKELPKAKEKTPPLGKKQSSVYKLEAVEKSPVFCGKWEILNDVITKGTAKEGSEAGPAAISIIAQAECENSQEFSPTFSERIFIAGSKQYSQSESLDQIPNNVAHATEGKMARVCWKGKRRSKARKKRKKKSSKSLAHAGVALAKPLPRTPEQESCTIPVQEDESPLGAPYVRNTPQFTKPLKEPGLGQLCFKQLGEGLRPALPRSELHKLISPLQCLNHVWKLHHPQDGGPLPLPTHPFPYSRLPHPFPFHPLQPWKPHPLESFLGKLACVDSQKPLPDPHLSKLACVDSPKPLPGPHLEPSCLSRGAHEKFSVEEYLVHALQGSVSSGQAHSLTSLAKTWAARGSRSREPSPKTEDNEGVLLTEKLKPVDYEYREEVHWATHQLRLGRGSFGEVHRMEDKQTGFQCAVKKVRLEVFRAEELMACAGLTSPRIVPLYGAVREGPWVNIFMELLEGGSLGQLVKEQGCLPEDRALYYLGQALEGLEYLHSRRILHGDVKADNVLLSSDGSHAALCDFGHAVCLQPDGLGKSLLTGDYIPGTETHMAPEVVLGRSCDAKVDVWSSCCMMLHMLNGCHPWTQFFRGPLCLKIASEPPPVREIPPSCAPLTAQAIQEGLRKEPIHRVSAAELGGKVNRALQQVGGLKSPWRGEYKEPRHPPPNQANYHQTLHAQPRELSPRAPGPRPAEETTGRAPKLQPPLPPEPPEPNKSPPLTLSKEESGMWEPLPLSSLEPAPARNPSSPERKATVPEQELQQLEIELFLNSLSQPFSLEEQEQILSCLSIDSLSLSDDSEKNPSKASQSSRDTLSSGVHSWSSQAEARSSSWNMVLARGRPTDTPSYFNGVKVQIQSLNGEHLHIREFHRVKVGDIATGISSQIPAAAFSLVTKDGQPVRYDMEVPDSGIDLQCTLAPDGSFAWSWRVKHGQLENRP
Chain of UniProt Q9HBH9 (whole entry, looked up): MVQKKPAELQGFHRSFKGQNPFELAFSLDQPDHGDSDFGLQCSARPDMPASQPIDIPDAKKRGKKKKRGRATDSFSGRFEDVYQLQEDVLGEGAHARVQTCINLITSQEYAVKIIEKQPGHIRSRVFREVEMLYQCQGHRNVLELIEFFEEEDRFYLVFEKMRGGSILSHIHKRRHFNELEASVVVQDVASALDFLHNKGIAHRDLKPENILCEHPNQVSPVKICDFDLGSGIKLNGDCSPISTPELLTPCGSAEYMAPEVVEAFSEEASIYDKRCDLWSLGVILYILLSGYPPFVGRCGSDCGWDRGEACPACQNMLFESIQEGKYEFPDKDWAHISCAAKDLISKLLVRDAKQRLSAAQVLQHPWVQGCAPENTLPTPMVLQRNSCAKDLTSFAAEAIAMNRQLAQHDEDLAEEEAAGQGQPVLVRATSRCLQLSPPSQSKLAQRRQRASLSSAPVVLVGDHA

Study 1 — read-out: cell-free assay; technique: competition with immobilised ligand; tested at: 0.1 µM
SMILES: CC(C)CC(=O)N1CCc2nc(-c3ccc(Br)cc3)nc(N(C)Cc3ccccc3)c2C1
The remaining binding was 100% (Testis-specific serine/threonine-protein kinase 3 (TSSK3, Homo sapiens, UniProt Q96PN8)).
It gave 100% for remaining binding (Misshapen-like kinase 1 (MINK1, Homo sapiens, UniProt Q8N4C8)).
MAP kinase-interacting serine/threonine-protein kinase 2 (MKNK2, Homo sapiens, UniProt Q9HBH9) — remaining binding: 73%.
The remaining binding was 95% (Mitogen-activated protein kinase kinase kinase kinase 3 (MAP4K3, Homo sapiens, UniProt Q8IVH8)).
For Serine/threonine-protein kinase PRP4 homolog (PRPF4B, Homo sapiens, UniProt Q13523): remaining binding read 100%.
For Hormonally up-regulated neu tumor-associated kinase (HUNK, Homo sapiens, UniProt P57058): remaining binding read 86%.
The remaining binding was 100% (Calcium/calmodulin-dependent protein kinase type 1D (CAMK1D, Homo sapiens, UniProt Q8IU85)).

Study 2 — cell line: L929; read-out: caspase activity; technique: Ac-DEVD-pNA absorbance; direction: higher = more activity
SMILES: CC(C)S(=O)(=O)c1ccc2nccc(Nc3ccc4scnc4c3)c2c1
5 µM, 0 h — caspase-3 activity: 0.019 a.u. and 0.005 a.u. and 0.018 a.u. and 0.007 a.u.
10 µM, 1 h — caspase-3 activity: 0.035 a.u. and 0.016 a.u. and 0.079 a.u. and 0.072 a.u.
The caspase-3 activity was 0.066 a.u. and 0.168 a.u. and 0.167 a.u. and 0.171 a.u. (5 µM, 4 h).

Study 3 — species: mouse; medium: microsomes or S9; tested at: 2 µM; time: 0.5 h
With COc1cc(C2CCNCC2)ccc1Nc1ncc(Cl)c(Nc2ccccc2CS(=O)(=O)C(C)C)n1 the remaining compound was 74.3%.
CC(C)CCN(C)c1ccc(C=Nn2cnnc2)cc1 gave a remaining compound of 6.66%.
The remaining compound of Cc1ccsc1CN(Cc1cn2ccccc2c1C#N)C(C)C is reported as 57.9%.
The remaining compound of O=C(O)C(c1c[nH]c2ccccc12)N1CCN(CC(=O)N2CCCCCC2)CC1 (stereo not shown) is reported as 98.8%.
COCc1nn2c(nnc3c(=O)n(NC(C)=O)ccc32)c1-c1ccc(F)cc1 has a remaining compound of 94.3%.

Study 4 — SMILES: CCN1/C(=C/C(C)=O)Sc2ccc(OC)cc21; read-out: enzyme activity; mode: inhibitor; tested at: 0.5 µM; relative to: control
For Ribosomal protein S6 kinase alpha-2 (RPS6KA2, Homo sapiens, UniProt Q15349): remaining activity read 83.3%.
For Tyrosine-protein kinase Lck (LCK, Homo sapiens, UniProt P06239): remaining activity read 99.4%.
Serine/threonine-protein kinase Nek6 (NEK6, Homo sapiens, UniProt Q9HC98) — remaining activity: 109%.
For Activin receptor type-1B (ACVR1B, Homo sapiens, UniProt P36896): remaining activity read 109%.
Mitogen-activated protein kinase kinase kinase 5 (MAP3K5, Homo sapiens, UniProt Q99683) — remaining activity: 118%.
The remaining activity was 98.1% (Glycogen synthase kinase-3 beta (GSK3B, Homo sapiens, UniProt P49841)).
Tyrosine-protein kinase Mer (MERTK, Homo sapiens, UniProt Q12866) — remaining activity: 88.6%.
It gave 94.5% for remaining activity (Macrophage-stimulating protein receptor (MST1R, Homo sapiens, UniProt Q04912)).
Fibroblast growth factor receptor 3 (FGFR3, Homo sapiens, UniProt P22607) — remaining activity: 99.1%.
For Rhodopsin kinase GRK7 (GRK7, Homo sapiens, UniProt Q8WTQ7): remaining activity read 104%.
For Serine/threonine-protein kinase TBK1 (TBK1, Homo sapiens, UniProt Q9UHD2): remaining activity read 94.5%.
The remaining activity was 89.9% (Ephrin type-A receptor 3 (EPHA3, Homo sapiens, UniProt P29320)).
For Tyrosine-protein kinase FRK (FRK, Homo sapiens, UniProt P42685): remaining activity read 99.5%.
The remaining activity was 128% (Serine/threonine-protein kinase A-Raf (ARAF, Homo sapiens, UniProt P10398)).
For Tyrosine-protein kinase JAK3 (JAK3, Homo sapiens, UniProt P52333): remaining activity read 103%.
It gave 105% for remaining activity (Mitogen-activated protein kinase 3 (MAPK3, Homo sapiens, UniProt P27361)).
It gave 102% for remaining activity (Wee1-like protein kinase (WEE1, Homo sapiens, UniProt P30291)).
For Serine/threonine-protein kinase Nek1 (NEK1, Homo sapiens, UniProt Q96PY6): remaining activity read 90.1%.
It gave 94.6% for remaining activity (MAP kinase-activated protein kinase 2 (MAPKAPK2, Homo sapiens, UniProt P49137)).
Dual specificity mitogen-activated protein kinase kinase 2 (MAP2K2, Homo sapiens, UniProt P36507) — remaining activity: 86.4%.
It gave 86.1% for remaining activity (Mitogen-activated protein kinase kinase kinase 14 (MAP3K14, Homo sapiens, UniProt Q99558)).
For Serine/threonine-protein kinase TAO2 (TAOK2, Homo sapiens, UniProt Q9UL54): remaining activity read 101%.
The remaining activity was 102% (Angiopoietin-1 receptor (TEK, Homo sapiens, UniProt Q02763)).

Study 5 — medium: 1,9-decadiene/PBS; pH: 7.4
CC(C)C[C@@H]1NC(=O)[C@H](CC(C)C)NC(=O)[C@H](CC(C)C)NC(=O)[C@H](C(C)C)NC(=O)[C@H](C)NC(=O)[C@@H](CC(C)C)NC(=O)[C@H](C)NC1=O has a logD of -0.0365.
For CC(C)C[C@@H]1NC(=O)[C@H](Cc2cscn2)NC(=O)[C@H](CC(C)C)NC(=O)[C@@H](CCC(=O)N2CCCC2)NC(=O)[C@H](CC(C)C)NC(=O)[C@@H](CC(C)C)NC(=O)[C@H](CC(C)C)NC1=O, the logD was 0.0857.
CC(C)C[C@@H]1NC(=O)[C@H](CC(C)C)NC(=O)[C@@H](CC(C)C)NC(=O)[C@H](C(C)C)NC(=O)[C@@H](Cc2cscn2)NC(=O)[C@H](Cc2cscn2)NC(=O)[C@H](CCC(=O)N2CCCC2)NC1=O has a logD of -1.56.
CC(C)C[C@@H]1NC(=O)[C@H](CC(C)C)NC(=O)[C@@H](CC(C)C)NC(=O)[C@H](C(C)C)NC(=O)[C@@H](CCC(=O)N2CCCC2)NC(=O)[C@H](Cc2cscn2)NC(=O)[C@H](C)NC1=O has a logD of -2.34.
The logD of CC(C)C[C@@H]1NC(=O)[C@H](CC(C)C)NC(=O)[C@@H](CC(C)C)NC(=O)[C@H](Cc2cscn2)NC(=O)[C@@H](Cc2cscn2)NC(=O)[C@H](Cc2cscn2)NC(=O)[C@H](CCC(=O)N2CCCC2)NC1=O is reported as -2.57.
For CC(C)C[C@@H]1NC(=O)[C@H](CC(C)C)NC(=O)[C@H](CC(C)C)NC(=O)[C@H](Cc2cscn2)NC(=O)[C@@H](CCC(=O)N2CCCC2)NC(=O)[C@H](Cc2cscn2)NC(=O)[C@H](C)NC1=O, the logD was -2.83.
For CC(C)C[C@@H]1NC(=O)[C@H](Cc2cscn2)NC(=O)[C@H](Cc2cscn2)NC(=O)[C@H](CC(C)C)NC(=O)[C@@H](CCC(=O)N2CCCC2)NC(=O)[C@H](CC(C)C)NC(=O)[C@@H](CC(C)C)NC1=O, the logD was -0.802.
CC(C)C[C@@H]1NC(=O)[C@H](CC(C)C)NC(=O)[C@@H](CC(C)C)NC(=O)[C@H](C)NC(=O)[C@@H](Cc2cscn2)NC(=O)[C@H](C)NC(=O)[C@H](CCC(=O)N2CCCC2)NC1=O has a logD of -3.03.

For quick reference, copied from above (study 4):
For Serine/threonine-protein kinase TBK1 (TBK1, Homo sapiens, UniProt Q9UHD2): remaining activity read 94.5%.
For Serine/threonine-protein kinase Nek1 (NEK1, Homo sapiens, UniProt Q96PY6): remaining activity read 90.1%.
The remaining activity was 128% (Serine/threonine-protein kinase A-Raf (ARAF, Homo sapiens, UniProt P10398)).
It gave 94.6% for remaining activity (MAP kinase-activated protein kinase 2 (MAPKAPK2, Homo sapiens, UniProt P49137)).
Dual specificity mitogen-activated protein kinase kinase 2 (MAP2K2, Homo sapiens, UniProt P36507) — remaining activity: 86.4%.
It gave 94.5% for remaining activity (Macrophage-stimulating protein receptor (MST1R, Homo sapiens, UniProt Q04912)).
For Serine/threonine-protein kinase TAO2 (TAOK2, Homo sapiens, UniProt Q9UL54): remaining activity read 101%.
It gave 102% for remaining activity (Wee1-like protein kinase (WEE1, Homo sapiens, UniProt P30291)).
